{"data": "Assay results from different studies", "organism": "Salmonella typhimurium", "note": "Compare with care: the assays were run in different laboratories. Numbers after ± are the reported error."}
{"Structure (SMILES)": "O=[N+]([O-])c1ccc(N2CCC(NCCC(O)c3ccc(F)c4ccccc34)CC2)c(C(F)(F)F)c1 (stereo not drawn)", "test": "genotoxicity, SOS/umu test", "test system": "TA1535/pSK1002", "conditions": "0.063 mg/mL, 4 h, without S9, full range", "measurement": "induction factor", "result": 0.29}
{"Structure (SMILES)": "COc1cccc(-c2n[nH]c(SCc3ccccn3)n2)c1OC", "test": "Ames test, preincubation", "test system": "TA98", "conditions": "0.063 mg/plate, with rat liver S9", "measurement": "revertant colonies per plate", "result": 26}
{"Structure (SMILES)": "O=[N+]([O-])c1ccc(NC2CCNCC2)c(C(F)(F)F)c1", "test": "SOS/umu test", "test system": "TA1535/pSK1002", "conditions": "0.5 mg/mL, 4 h, without S9, full range", "measurement": "survival", "result": "33.9%"}
{"Structure (SMILES)": "CC(C)N(N=O)C(C)C", "test": "mutagenicity, Ames plate incorporation", "test system": "TA100", "conditions": "2500 µg/plate, without S9, methanol", "measurement": "revertant colonies per plate", "result": "142 ± 10"}
{"Structure (SMILES)": "Cc1cc(C(=O)NC(C)(C)COc2cccc3c2C(N)=NS(=O)(=O)N3)cc(C)n1", "test": "Ames test, initial", "test system": "TA100", "conditions": "1500 µg/plate, with: rat liver S9", "scale": "baseline: solvent control", "measurement": "revertant ratio", "result": 1.3}
{"Structure (SMILES)": "OC(CCN1CC=C(c2ccc(F)cc2)CC1)c1ccc(F)c2ccccc12 (stereo not drawn)", "test": "SOS/umu test", "test system": "TA1535/pSK1002", "conditions": "0.063 mg/mL, 4 h, with S9, full range", "measurement": "survival", "result": "38.8%"}
{"Structure (SMILES)": "COCCN(CCOC)N=O", "test": "mutagenicity, Ames plate incorporation", "test system": "TA100", "conditions": "1500 µg/plate, 3 d, without S9, methanol", "measurement": "revertant colonies per plate", "result": "126 ± 11"}
{"Structure (SMILES)": "CC(=O)N1CCC(C(=O)N2CCN3C(=O)c4cc(-c5ccccc5)ccc4NC(=O)C3C2)CC1 (stereo not drawn)", "test system": "TA1537", "conditions": "5.0 µg/plate", "scale": "baseline: vehicle", "measurement": "fold increase in revertants", "result": 1}
{"Structure (SMILES)": "O=NN1CCN(C2CCCC2)CC1", "test": "mutagenicity, Ames plate incorporation", "test system": "TA1535", "conditions": "2500 µg/plate, 3 d, without S9, methanol", "measurement": "revertant colonies per plate", "result": "20.3 ± 6"}
{"Structure (SMILES)": "N#C[C@@]1(n2ccc(N)nc2=O)O[C@H](CO)[C@@H](O)[C@H]1O", "test system": "TA1535", "conditions": "5 µM, without S9", "measurement": "viability", "result": "106%"}
{"Structure (SMILES)": "O=[N+]([O-])c1ccc(N2CCN(CCC(O)c3ccc(F)cc3)CC2)c(C(F)(F)F)c1 (stereo not drawn)", "test": "SOS/umu test", "test system": "TA1535/pSK1002", "conditions": "0.063 mg/mL, 4 h, with S9, full range", "measurement": "survival", "result": "35%"}
{"Structure (SMILES)": "CNC(=O)c1c(N(C)N=O)ncn1C", "test": "mutagenicity, Ames plate incorporation", "test system": "TA1537", "conditions": "2500 µg/plate, without S9, methanol", "measurement": "revertant colonies per plate", "result": "8.3 ± 6"}
